Results gathered from unrelated publications.
A part holds a random share of what one study measured. Substitutions count along the parent as printed.

Block 1
Target: Sal-like protein 4, full length isoform B (SALL4, Homo sapiens, UniProt Q9UJQ4-2, residues 1-616)
Technique: universal PBM
Molecule type: double-stranded DNA, one strand shown
Matrix: in vitro
Concentration: not given
Notes: 8-mer, flanks averaged, mean of replicates
Direction: higher = stronger binding
Measurement: E-score
AATCGCGC: -0.0312
CGCCAAGC: -0.215
ATGAGGAA: 0.171
AAGGATCG: 0.0919
CCACGCAA: -0.179
TCGTCCAA: 0.0754
CGGTGGAA: -0.245
ATTCCGGG: -0.0977
AACCTGCA: -0.0963
CCTATTAG: 0.186

Block 2
Target: CCND3, cyclin fold, Cln2 fusion (human)
Technique: yeast growth competition, sequencing
Matrix: yeast
Notes: weak parent motif
Baseline: not given
Direction: higher = stronger binding
Measurement: normalised enrichment score
Starting sequence: RBL2 docking peptide (human); STTRRRLFVENDS
T2Q: 0.237
V9Q: 0.0989
R4T: 0.062
S13P: 0.109
E10V: 0.136
R5N: 0.12
T2P: 0.124
S1P: 0.0912
E10S: 0.16
S13I: 0.245
E10R: 0.106
S1C: 0.202
F8P: 0.263

Block 3
Target: ABI1, truncated, D143A, DHFR fusion (Arabidopsis thaliana)
Technique: DHFR PCA, deep sequencing
Matrix: yeast
Notes: methotrexate growth selection, single substitutions
Together with: (+)-ABA 200 µM
Baseline: wild-type fitted maximum
Direction: higher = stronger binding
Measurement: relative binding score
Starting sequence: PYL1, truncated, DHFR fusion (Arabidopsis thaliana); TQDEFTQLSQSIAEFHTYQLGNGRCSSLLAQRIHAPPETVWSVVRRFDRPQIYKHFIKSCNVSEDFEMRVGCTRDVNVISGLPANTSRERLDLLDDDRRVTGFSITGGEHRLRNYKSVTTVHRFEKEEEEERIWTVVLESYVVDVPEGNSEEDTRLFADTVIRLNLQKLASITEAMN
S59N: 98.3%
E130G: 109%
Y53P: 12.4%
S171L: 93.7%
W134G: 106%
I33V: 94%
G81S: 70.5%
H55M: 107%
Q31I: 72%
L156N: 90.2%
E38D: 102%
C72S: 100%
S11H: 96.9%

Other studies, line by line
PhoQ, residues 284 288 289 292 302 303 AAQSYM — fold induction (PhoP, residues 12 14 15 18 19 GQALL (Escherichia coli, UniProt P23836); Sort-seq, item: YFP reporter; E. coli; PhoQ-PhoP variant library, together with: 10 µM Mg2+; baseline: high Mg2+ state, higher = stronger signaling): 6.17

Some of these lines once more (other studies, line by line):
PhoQ, residues 284 288 289 292 302 303 AAQSYM — fold induction (PhoP, residues 12 14 15 18 19 GQALL (Escherichia coli, UniProt P23836); Sort-seq, item: YFP reporter; E. coli; PhoQ-PhoP variant library, together with: 10 µM Mg2+; baseline: high Mg2+ state, higher = stronger signaling): 6.17
